Published values from different studies.
Each line is one published result; not all experiments were run side by side. ± gives the spread as reported.
Nicotinic acetylcholine receptor alpha9/alpha10: Nicotinic acetylcholine receptor alpha9/alpha10 (Rattus norvegicus, UniProt P43144+Q9JLB5)
USP13 ZnF-UBD domain: Ubiquitin carboxyl-terminal hydrolase 13, ZnF-UBD domain (USP13, Homo sapiens, UniProt Q92995)

Structure (SMILES)	tested on	assay	test system	setting	how to read	quantity	result
O=C(O)CC[C@H](NC(=O)N[C@@H](CCCCNC(=O)[C@H](Cc1ccc2ccccc2c1)NC(=O)CCCCCNC(=O)CN1CCN(CC(=O)O)CCN(CC(=O)O)CCN(CC(=O)O)CC1)C(=O)O)C(=O)O [gallium-68 labelled]		gamma counting	mouse, 22Rv1 xenograft, spleen	intravenous, 3.7 MBq, 2 h		tissue uptake	3.23 ± 1.19 %ID/g
[Cl-].[Cl-].[Zn+2]	HVCN1 (Homo sapiens, UniProt Q96D96, E119H)	whole-cell voltage clamp		120 mV, open probability 0.3		Hill coefficient	1.4
Cc1ccc(NC(=O)/C=C/c2cccs2)cc1	Nicotinic acetylcholine receptor alpha9/alpha10	inhibitor		together with: ACh 10 µM		Hill coefficient	1.4 ± 0.1
COc1cc(C(=O)NS(=O)(=O)c2ccccc2C)ccc1Cc1cn(C)c2ccc(NC(=O)OC3CCCC3)cc12	LRRC8A/LRRC8C (Homo sapiens, UniProt Q8IWT6+Q8TDW0, E6A)	whole-cell patch clamp	HCT116 LRRC8-/- transfected	at +100 mV		Hill coefficient	1.39
Cc1nccn1CC1CCc2c(c3ccccc3n2C)C1=O (stereo not shown)	Htr3a (Mus musculus, UniProt P23979, W183X)	antagonist, voltage clamp	Xenopus oocytes			Hill coefficient	-1.8 ± 0.1
O=C1Nc2c(ccc(Cl)c2Cl)C1=NO	KCNN4/CALM1 (Homo sapiens, UniProt O15554+P0DP23)	ion current, activator, whole-cell patch clamp	HEK293	together with: 3 µM free calcium		Hill coefficient	1
Cn1cc(-c2ccc(-c3cncc(Cl)c3N3CCC4(CCNC4=O)CC3)cc2)cn1	COLO 205	gene expression, microarray, measured: KLF8 mRNA		concentration not given, 6 h	baseline: untreated cells	log2 fold change	-2.01
Cc1cc(NC(=O)CCC(=O)O)nn1C	USP13 ZnF-UBD domain					Kd	660 µM
Cc1ccc(N(C)C(=O)/C=C/c2ccco2)cc1	Nicotinic acetylcholine receptor alpha9/alpha10	inhibitor		together with: ACh 100 µM		Hill coefficient	1.6 ± 0.2
N=C(N)NC(=N)Nc1cccc(Cl)c1	Htr3a (Mus musculus, UniProt P23979)	agonist-evoked current, agonist, two-electrode voltage clamp	Xenopus oocytes	wild-type receptor		Hill coefficient	2.2 ± 0.1
N#Cc1c2n(c3c(=O)n(CC(=O)O)cnc13)CCCC2	USP13 ZnF-UBD domain					Kd	> 1000 µM
N=C(N)Nc1nc2ccccc2[nH]1	HVCN1 (Homo sapiens, UniProt Q96D96, F150A/F182A)	proton current, inhibitor, inside-out patch clamp				Hill coefficient	0.88 ± 0.02
Nc1nc2c(ncn2[C@@H]2O[C@@H]3COP(=O)(O)O[C@H]3[C@H]2O)c(=O)[nH]1	Cone cGMP-gated channel (Morone saxatilis, UniProt Q3I0N1+Q3I0N2)	channel current, agonist, suction electrode	cone outer segments	single cone shown, together with: 5 µM Ca2+		Hill coefficient	2.5
O=C(Nc1cccc2c(=O)cc(-c3nnn[nH]3)oc12)c1ccc(OCCCCc2ccccc2)cc1	LRRC8A/LRRC8C (Homo sapiens, UniProt Q8IWT6+Q8TDW0)	ion current, inhibitor, whole-cell patch clamp	HCT116 LRRC8 knockout, transfected	-100 mV, LRRC8A/LRRC8C heteromer		Hill coefficient	0.74
N#Cc1ccc2[nH]cc(CCCCN3CCN(c4ccc5oc(C(N)=O)cc5c4)CC3)c2c1	SLC6A4 (Homo sapiens, UniProt P31645, A169I)	[3H]5-HT uptake, inhibitor	COS-7			Hill coefficient	1.27 ± 0.23
CCCCCCCC/C=C\CCCCCCCC(=O)NCCc1ccc(O)c(O)c1	Trpv1 (Mus musculus, UniProt Q704Y3, T557S)	ion current, agonist, whole-cell patch clamp		T557S		Hill coefficient	2.59 ± 0.33

Repeated from above:
Structure (SMILES)	tested on	assay	test system	setting	how to read	quantity	result
Cc1nccn1CC1CCc2c(c3ccccc3n2C)C1=O (stereo not shown)	Htr3a (Mus musculus, UniProt P23979, W183X)	antagonist, voltage clamp	Xenopus oocytes			Hill coefficient	-1.8 ± 0.1
O=C1Nc2c(ccc(Cl)c2Cl)C1=NO	KCNN4/CALM1 (Homo sapiens, UniProt O15554+P0DP23)	ion current, activator, whole-cell patch clamp	HEK293	together with: 3 µM free calcium		Hill coefficient	1
